Published values from different studies.
Compare with care: the assays were run in different laboratories. Numbers after ± are the reported error.

CC(C)[C@@H]1NC(=O)[C@H](Cc2ccccc2)NC(=O)[C@@H]2NC(=O)[C@H](Cc3ccccc3)NC(=O)[C@@H]3CCCN3C(=O)CNC(=O)[C@H](Cc3ccccc3)NC(=O)[C@@H]3CNCCCC[C@@H](C(=O)O)NC(=O)[C@@H]4NC(=O)[C@H](CC(N)=O)NC(=O)CNC(=O)[C@H]([C@@H](O)C(=O)O)NC(=O)[C@H](CSC[C@@H](NC(=O)[C@H](CCC(N)=O)NC(=O)[C@H](CCCCNC(=O)c5ccc(NN)nc5)NC(=O)[C@@H](N)CS[C@H]4C)C(=O)N[C@@H](CS[C@H]2C)C(=O)N3)NC1=O [technetium-99m labelled] gave a tissue uptake of 0.54 ± 0.1 %ID/g (rat, saline control, spleen; intravenous, 2 h after tracer, tracer 2 h after reperfusion).
CC[C@H](C)[C@H](NC(=O)[C@H](Cc1ccccc1)NC(=O)[C@H](CCC(=O)O)NC(=O)[C@H](CCCNC(=N)N)NC(=O)[C@H](C)NC(=O)[C@H](C)NC(=O)[C@H](CCC(N)=O)NC(=O)[C@H](CCC(=O)O)NC(=O)[C@H](CCC(=O)O)NC(=O)[C@H](CC(C)C)NC(=O)[C@H](Cc1ccc(O)cc1)NC(=O)[C@H](CO)NC(=O)[C@H](CO)NC(=O)[C@@H](NC(=O)[C@H](CC(=O)O)NC(=O)[C@H](CO)NC(=O)[C@@H](NC(=O)[C@H](Cc1ccccc1)NC(=O)[C@@H](NC(=O)CNC(=O)[C@H](CCC(=O)O)NC(=O)[C@H](C)NC(=O)CCc1c[nH]cn1)[C@@H](C)O)[C@@H](C)O)C(C)C)C(=O)N[C@@H](C)C(=O)N[C@@H](Cc1c[nH]c2ccccc12)C(=O)N[C@@H](CC(C)C)C(=O)N[C@H](C(=O)N[C@@H](CCCNC(=N)N)C(=O)NCC(=O)N[C@@H](CCCNC(=N)N)C(=O)N[C@@H](CCCCNC(=O)COCCOCCNC(=O)COCCOCCNC(=O)CC[C@H](NC(=O)CCCCCCCCCCCCCCCCC(=O)O)C(=O)O)C(=O)NCC(=O)NCC(=O)N[C@@H](CO)C(=O)N[C@@H](CCCCNc1c(NCCCCCN(O)C(=O)CCC(=O)NCCCCCN(O)C(=O)CCC(=O)NCCCCCN(O)C(C)=O)c(=O)c1=O)C(=O)O)C(C)C [zirconium-89 labelled] has a tissue uptake of 0.21 %ID/g (rat, colon; sc, 3 nmol/kg, 24 h, ex vivo).
C[C@@H](O)[C@@H](CO)NC(=O)[C@@H](CCCNC(=N)N)NC(=O)[C@@H]1CCCN1C(=O)[C@@H]1CSSC[C@H](NC(=O)[C@H](Cc2ccccc2)NC(=O)CN2CCN(CC(=O)O)CCN(CC(=O)O)CCN(CC(=O)O)CC2)C(=O)N[C@@H](Cc2ccc(O)cc2)C(=O)N[C@@H](Cc2ccccc2)C(=O)N[C@@H](CCC(N)=O)C(=O)N[C@@H](CC(N)=O)C(=O)N1 [gallium-68 labelled] gave a tissue uptake of 0.27 %ID/g (healthy Wistar rat, bone; intravenous, 8 MBq, 60 min, individual animals).
For C[C@@H](O)[C@H](NC(=O)[C@@H]1CSSC[C@H](NC(=O)[C@@H](Cc2ccccc2)NC(=O)CN2CCN(CC(=O)[O-])CCN(CC(=O)[O-])CCN(CC(=O)[O-])CC2)C(=O)N[C@@H](Cc2ccc(O)cc2)C(=O)N[C@H](Cc2c[nH]c3ccccc23)C(=O)N[C@@H](CCCCN)C(=O)N[C@@H]([C@@H](C)O)C(=O)N1)C(=O)O.[177Lu+3], the uptake was 1.15% (MEC1 treated with 100 µM zebularine; gamma counter; serum-free RPMI; 60 min, 37 °C).
For CCCCCCCCCC(=O)N[C@@H](Cc1c[nH]c2ccccc12)C(=O)N[C@H](CC(N)=O)C(=O)N[C@@H](CC(=O)O)C(=O)N[C@@H]1C(=O)NCC(=O)N[C@@H](CCCNC(=O)CCC(=O)N2Cc3ccccc3-c3c(nnn3CCC[C@H](NC(=O)CCCCC[N+]3=C(C=CC4=CC(=CC=C5N(C)c6ccccc6C5(C)C)CCC4)C(C)(C)c4ccccc43)C(=O)NCCCCNC(=O)CCC(=O)N3Cc4ccccc4C#Cc4ccccc43)-c3ccccc32)C(=O)N[C@@H](CC(=O)O)C(=O)N[C@H](C)C(=O)N[C@@H](CC(=O)O)C(=O)NCC(=O)N[C@H](CO)C(=O)N[C@@H]([C@H](C)CC(=O)O)C(=O)N[C@@H](CC(=O)c2ccccc2N)C(=O)O[C@@H]1C, the fraction unbound was 0.174 (rapid equilibrium dialysis; human plasma; 1 µM, 2 h, 37 °C).
For O=C(O)C[C@H](NC(=O)[C@H](CC(=O)O)NC(=O)[C@H](CC(=O)O)NC(=O)[C@H](CC(=O)O)NC(=O)[C@H](CC(=O)O)NC(=O)[C@H](CC(=O)O)NC(=O)[C@H](CC(=O)O)NC(=O)[C@H](CC(=O)O)NC(=O)[C@H](CC(=O)O)NC(=O)[C@H](CC(=O)O)NC(=O)[C@H](CC(=O)O)NC(=O)[C@H](CCCCNC(=O)c1ccc(C(=O)NCCOCCOB2BBBBBB3BBBB3B2)cc1)NC(=O)CN1CCN(CC(=O)O)CCN(CC(=O)O)CCN(CC(=O)O)CC1)C(=O)O [gallium-67 labelled], the tissue uptake was 2.98 %ID/g (ddY mice, male, blood; intravenous, 37 kBq, 10 min).
Under “total nuclear transformations”, CC(C)C[C@@H]1NC(=O)[C@H](CC(C)C)NC(=O)[C@H](Cc2c[nH]c3ccccc23)NC(=O)[C@H](CO)NC(=O)[C@H](Cc2c[nH]c3ccccc23)NC(=O)[C@@H]2CCCN2C(=O)[C@H](CC(C)C)NC(=O)[C@H](Cc2c[nH]cn2)NC(=O)[C@@H]2CCCN2C(=O)[C@H](CC(N)=O)NC(=O)[C@H](C)NC(=O)[C@H](Cc2ccc(O)cc2)NC(=O)[C@H](CS)NC(=O)[C@H](CCCCNC(=O)CN2CCN(CC(=O)O)CCN(CC(=O)O)CCN(CC(=O)O)CC2)NC1=O [lutetium-177 labelled] is recorded as 49.1 MBq-s (OLINDA dosimetry; BALB/c mice, spleen; 37 MBq, 7 days).
With Cc1ccccc1NC(=O)Nc1ccc(CC(=O)N[C@@H](CCCCNC(=O)/C=C/c2cccnc2)C(=O)N[C@@H](CCCC(=O)O)C(=O)NC2(C(=O)NCCOCCOCCOCCOCC(=O)N[C@@H](CCCCNC(=S)Nc3ccc(CCCN(CCN4CCN(CP(=O)(O)O)CCN(CP(=O)(O)O)CC4)CC(=O)O)cc3)C(N)=O)CCCCC2)cc1 [gallium-68 labelled] the free gallium-68 was 4.8% (radio-HPLC; C57BL/6 mice, urine; 30 min post-injection).

Excerpt of the above:
For CCCCCCCCCC(=O)N[C@@H](Cc1c[nH]c2ccccc12)C(=O)N[C@H](CC(N)=O)C(=O)N[C@@H](CC(=O)O)C(=O)N[C@@H]1C(=O)NCC(=O)N[C@@H](CCCNC(=O)CCC(=O)N2Cc3ccccc3-c3c(nnn3CCC[C@H](NC(=O)CCCCC[N+]3=C(C=CC4=CC(=CC=C5N(C)c6ccccc6C5(C)C)CCC4)C(C)(C)c4ccccc43)C(=O)NCCCCNC(=O)CCC(=O)N3Cc4ccccc4C#Cc4ccccc43)-c3ccccc32)C(=O)N[C@@H](CC(=O)O)C(=O)N[C@H](C)C(=O)N[C@@H](CC(=O)O)C(=O)NCC(=O)N[C@H](CO)C(=O)N[C@@H]([C@H](C)CC(=O)O)C(=O)N[C@@H](CC(=O)c2ccccc2N)C(=O)O[C@@H]1C, the fraction unbound was 0.174 (rapid equilibrium dialysis; human plasma; 1 µM, 2 h, 37 °C).
